Assay results of several laboratories.
Compare with care: the assays were run in different laboratories.
Cell line: HepG2
Effect on: cell growth or viability

| SMILES | technique | time | IC50 |
| --- | --- | --- | --- |
| NC(=O)c1cccc2c3c([nH]c12)CCC(N)C3 (centres unmarked) |  |  | 0.198 µM |
| COc1ccc2nc(C)cc(OCC(=O)Nc3cc(C)cc(C)c3)c2c1 | ATP luminescence | 48 h | > 50 µM |
| C=C1C(=O)O[C@H]2C[C@H](C)C(/C=C/C(C)=O)=CC[C@H]12 | MTT | 24 h | 49 µM |
| CCCCCCCCCCCCCCC(=O)O.O=C1CCCC2C3CCCN4CCCC(CN12)C34 (centres unmarked) | MTT | 24 h | 150 µM |
| Cc1cn2c(C(=O)NCc3ccc(C(F)(F)F)cc3)c(C)nc2s1 |  |  | > 25 µM |
| Cc1cccc(-c2nc(Nc3ccncn3)c3c(C)csc3n2)n1 | ATP luminescence | 48 h | > 25 µM |
| CNC(=O)CC[C@@H](NC(=O)[C@@H](Cc1ccc(OP(=O)(O)O)cc1)NC(=O)[C@@H](Cc1ccccc1)NC(=O)[C@@H](Cc1ccccc1)NC(=O)Cc1ccc2ccccc2c1)C(=O)NC | MTT |  | 111 µM |
| CO[C@H]1[C@@H](O)[C@H](n2ccc(=O)[nH]c2=O)O[C@@H]1[C@@H](O[C@H]1OC(C(=O)N[C@H]2N=C(c3ccccc3)c3ccccc3NC2=O)=C[C@H](O)[C@@H]1O)C(N)=O | MTT |  | > 400 µg/mL |
| CC[C@@]1(O)C(=O)OCc2c1cc1n(c2=O)Cc2cc3cc(OC(=O)CCCC(=O)NCC(=O)N[C@@H](Cc4ccccc4)C(=O)N[C@@H](Cc4ccccc4)C(=O)N[C@@H](Cc4ccc(O)cc4)C(=O)NCCS)ccc3nc2-1 | MTT |  | 0.423 µM |
| Cc1cccc(-c2nc(Nc3ccncn3)c3sccc3n2)n1 | ATP luminescence | 48 h | 31.4 µM |
| CNC(=O)c1cc(Oc2ccc(NC(=O)c3ccc(-c4ccc(OC(=O)CCC(=O)OC5OC6OC7(C)CCC8C(C)CCC(C5C)C68OO7)cc4)cn3)cc2)ccn1 (centres unmarked) | MTT | 72 h | 8.33 µM |
| Cc1ccc2nc(C)c(C(=O)NCc3cccs3)n2c1 | ATP luminescence | 48 h | > 25 µM |
| O=C1CC2(C1)C(=O)[O][Pt]1([Cl])([O]C(=O)C(F)(F)F)([NH][C@@H]3CCCC[C@H]3[NH]1)[O]C2=O | MTT |  | 17.5 µM |
| O=C(NC12CC3CC(CC(C3)C1)C2)c1cc2cc(Cl)ccc2[nH]1 | ATP luminescence | 48 h | > 50 µM |
| CNC(=O)c1cc(Oc2ccc(NC(=O)c3cc(-c4ccccc4OC(=O)CCC(=O)OC4OC5OC6(C)CCC7C(C)CCC(C4C)C57OO6)ccn3)cc2)ccn1 (centres unmarked) | MTT | 72 h | 7.23 µM |
| CC[C@@]1(O)C(=O)OCc2c1cc1n(c2=O)Cc2cc3cc(OC(=O)CCCC(=O)NCC(=O)N[C@@H](Cc4ccccc4)C(=O)N[C@@H](Cc4ccccc4)C(=O)N[C@@H](Cc4ccc(O)cc4)C(=O)NCCSSCCNC(=O)CCC(=O)N[C@@H](CCC(=O)O)C(=O)N[C@@H](CCCNC(=N)N)C(=O)NCC(=O)N[C@@H](CC(=O)O)C(=O)O)ccc3nc2-1 | MTT |  | 0.355 µM |
| CNC(=O)c1cc(Oc2ccc(NC(=O)c3ccc(-c4cccc(OC(=O)CCC(=O)OC5OC6OC7(C)CCC8C(C)CCC(C5C)C68OO7)c4)cn3)cc2)ccn1 (centres unmarked) | MTT | 72 h | 4.49 µM |
| O=C(Nc1nc2c(ncn2C2OC(COP(=O)(O)O)C(O)C2O)c(=O)[nH]1)c1ccccc1 (centres unmarked) |  |  | > 100 µM |
| CCCCCCCCCCCCCC(=O)N[C@H](CCN)C(=O)N[C@@H]1C(=O)N[C@@H](CCN)C(=O)N[C@@H](CC(C)C)C(=O)N[C@@H](CCN)C(=O)N[C@H](Cc2ccccc2)C(=O)N[C@@H](CC(C)C)C(=O)N[C@@H](CCN)C(=O)N[C@H](CCN)C(=O)N[C@@H](C(C)C)C(=O)N[C@@H](CC(=O)O)C(=O)O[C@@H]1C | MTT | 48 h | > 30 µg/mL |
| CNC(=O)c1cc(Oc2ccc(NC(=O)c3cc(-c4cccc(COC(=O)CCC(=O)OC5OC6OC7(C)CCC8C(C)CCC(C5C)C68OO7)c4)ccn3)cc2)ccn1 (centres unmarked) | MTT | 72 h | 9.93 µM |

Some of these lines once more:
| SMILES | technique | time | IC50 |
| --- | --- | --- | --- |
| CNC(=O)c1cc(Oc2ccc(NC(=O)c3ccc(-c4ccc(OC(=O)CCC(=O)OC5OC6OC7(C)CCC8C(C)CCC(C5C)C68OO7)cc4)cn3)cc2)ccn1 (centres unmarked) | MTT | 72 h | 8.33 µM |
| Cc1ccc2nc(C)c(C(=O)NCc3cccs3)n2c1 | ATP luminescence | 48 h | > 25 µM |
| O=C1CC2(C1)C(=O)[O][Pt]1([Cl])([O]C(=O)C(F)(F)F)([NH][C@@H]3CCCC[C@H]3[NH]1)[O]C2=O | MTT |  | 17.5 µM |
